Published values from different studies.
Numbered parts are unrelated; each lists some results of a single study. Substitutions count along the parent as printed.
UniProt Q9HAZ1, sequence (whole entry, looked up): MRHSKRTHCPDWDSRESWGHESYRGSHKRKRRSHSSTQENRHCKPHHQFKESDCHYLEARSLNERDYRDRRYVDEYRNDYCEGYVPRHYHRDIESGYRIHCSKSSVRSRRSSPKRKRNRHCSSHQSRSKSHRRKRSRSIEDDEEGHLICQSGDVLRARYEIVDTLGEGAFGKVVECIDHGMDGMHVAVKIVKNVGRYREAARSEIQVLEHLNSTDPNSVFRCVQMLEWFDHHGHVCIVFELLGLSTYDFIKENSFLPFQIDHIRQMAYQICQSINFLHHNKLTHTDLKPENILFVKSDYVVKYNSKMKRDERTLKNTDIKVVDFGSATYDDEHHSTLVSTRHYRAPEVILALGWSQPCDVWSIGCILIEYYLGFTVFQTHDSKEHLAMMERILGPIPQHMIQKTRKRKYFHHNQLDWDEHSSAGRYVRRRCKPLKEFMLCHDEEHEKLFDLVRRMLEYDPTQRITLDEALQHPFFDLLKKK
UniProt P51956, sequence (whole entry, looked up): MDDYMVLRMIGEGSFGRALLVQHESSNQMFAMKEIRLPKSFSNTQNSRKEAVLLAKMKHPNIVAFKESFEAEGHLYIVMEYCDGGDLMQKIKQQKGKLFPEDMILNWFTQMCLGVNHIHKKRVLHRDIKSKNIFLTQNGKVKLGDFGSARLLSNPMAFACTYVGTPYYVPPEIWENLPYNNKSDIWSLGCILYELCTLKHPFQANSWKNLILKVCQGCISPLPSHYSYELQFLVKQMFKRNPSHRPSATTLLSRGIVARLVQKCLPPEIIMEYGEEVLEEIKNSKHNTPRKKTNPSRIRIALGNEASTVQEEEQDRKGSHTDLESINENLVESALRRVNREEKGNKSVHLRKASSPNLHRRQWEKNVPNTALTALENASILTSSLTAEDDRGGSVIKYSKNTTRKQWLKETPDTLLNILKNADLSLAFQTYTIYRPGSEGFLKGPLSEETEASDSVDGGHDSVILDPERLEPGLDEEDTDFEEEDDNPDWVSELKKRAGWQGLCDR

Set 1 — observed: ligand displacement; tested at: 10 µM
Target: D(1B) dopamine receptor (DRD5, Homo sapiens, UniProt P21918)
With `C[C@@H]1CN(c2cc(-c3n[nH]c4ccc(OC5(C)CC5)cc34)ncn2)C[C@H](C)O1` the inhibition was 16.1%.
With `CN(C)C(=O)c1sc2nc(N3CCC(S(C)(=O)=O)CC3)cc(C(F)(F)F)c2c1N` the inhibition was -19.7%.
`CCC(F)(F)c1cc(N2CCC(S(C)(=O)=O)CC2)nc2sc(C(N)=O)c(N)c12` has an inhibition of 2.13%.
The inhibition of `COCCOc1nc(-c2ccc(Cl)nc2)nc2c1CN(C(=O)c1ncn3ccccc13)CC2` is reported as -3.46%.
`CC[C@H](CC(=O)O)n1c(=O)c2ncccc2n(Cc2cn(C)c3cc(C)cc(C)c23)c1=O` has an inhibition of 22.2%.

Set 2 — observed: enzyme activity; mode: inhibitor; tested at: 0.5 µM; reference: control
SMILES: O=C1NC(=O)c2c1c1c3ccccc3n3c1c1c2c2ccccc2n1[C@H]1CC[C@@H]3O1
The remaining activity was 88.7% (MAPK1 (Homo sapiens, UniProt P28482)).
NEK3 (Homo sapiens, UniProt P51956) — remaining activity: 102%.
For CLK4 (Homo sapiens, UniProt Q9HAZ1): remaining activity read 20.3%.
It gave 29.5% for remaining activity (MAP2K1 (Homo sapiens, UniProt Q02750)).

Set 3 — target: CCNA2, cyclin fold, Cln2 fusion (human); technique: yeast growth competition, sequencing; matrix: yeast; setting: strong parent motif; reference: not given; direction: higher = stronger binding
Starting sequence: viral docking peptide; PTARRRLLHDLDT; partner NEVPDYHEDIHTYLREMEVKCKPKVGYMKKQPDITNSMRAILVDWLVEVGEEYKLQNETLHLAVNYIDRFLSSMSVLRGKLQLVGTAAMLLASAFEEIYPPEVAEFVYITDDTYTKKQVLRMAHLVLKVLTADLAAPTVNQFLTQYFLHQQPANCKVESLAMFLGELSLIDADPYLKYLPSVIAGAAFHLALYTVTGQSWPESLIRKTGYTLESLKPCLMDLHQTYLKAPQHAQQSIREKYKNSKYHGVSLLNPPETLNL
Under “normalised enrichment score”, `P1A` is recorded as 2.29.
Under “normalised enrichment score”, `R5K` is recorded as 1.77.
For `H9F`, “normalised enrichment score” read 6.8.
`L7A`: “normalised enrichment score” -0.192.
`T2A`: “normalised enrichment score” 3.07.
`R4A` — result for “normalised enrichment score”: -0.1.
Under “normalised enrichment score”, `D12A` is recorded as 1.51.
Under “normalised enrichment score”, `D10A` is recorded as 1.82.

Set 4 — target: inorganic phosphate, free oxyanion; technique: microfluidic competitive inhibition; matrix: in vitro, cell-free expressed; tested at: not given; direction: lower = stronger binding
Setting: derived from inhibition constants, unchanged parent 615000 nM
Starting sequence: PafA, mature enzyme, eGFP fusion (Elizabethkingia meningoseptica, UniProt Q9KJX5); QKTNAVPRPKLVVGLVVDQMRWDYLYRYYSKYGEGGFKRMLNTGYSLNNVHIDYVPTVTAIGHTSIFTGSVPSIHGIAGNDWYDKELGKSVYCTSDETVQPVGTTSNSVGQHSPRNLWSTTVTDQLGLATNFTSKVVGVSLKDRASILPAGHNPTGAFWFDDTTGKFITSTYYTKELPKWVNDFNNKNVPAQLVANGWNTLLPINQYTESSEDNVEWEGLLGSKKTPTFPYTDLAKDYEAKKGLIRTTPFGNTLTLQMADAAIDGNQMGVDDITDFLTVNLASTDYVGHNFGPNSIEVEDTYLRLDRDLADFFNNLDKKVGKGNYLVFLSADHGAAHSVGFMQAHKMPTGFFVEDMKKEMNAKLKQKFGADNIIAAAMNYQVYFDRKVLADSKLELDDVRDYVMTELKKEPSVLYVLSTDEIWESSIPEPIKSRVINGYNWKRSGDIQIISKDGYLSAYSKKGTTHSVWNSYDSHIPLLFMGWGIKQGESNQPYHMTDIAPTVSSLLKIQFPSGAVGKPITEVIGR
For `K408G`, “phosphate dissociation constant” read 628 µM.
For `N294G`, “phosphate dissociation constant” read 403 µM.
Under “phosphate dissociation constant”, `K387G` is recorded as 578 µM.
`Y32G`: “phosphate dissociation constant” 566 µM.
`A282V` — result for “phosphate dissociation constant”: 793 µM.
`F67V`: “phosphate dissociation constant” 289 µM.
For `K518V`, “phosphate dissociation constant” read 589 µM.
`G288A`: “phosphate dissociation constant” 515 µM.

For quick reference, copied from above (set 3):
For `H9F`, “normalised enrichment score” read 6.8.
`L7A`: “normalised enrichment score” -0.192.
`T2A`: “normalised enrichment score” 3.07.
`R4A` — result for “normalised enrichment score”: -0.1.
